Measurements gathered from unrelated publications.
Lines come from different studies, so protocols differ. Converted amounts (≈) assume the structure as drawn.

The chains behind the UniProt entries cited, without tags or fusion partners.
UniProt P25100, whole entry: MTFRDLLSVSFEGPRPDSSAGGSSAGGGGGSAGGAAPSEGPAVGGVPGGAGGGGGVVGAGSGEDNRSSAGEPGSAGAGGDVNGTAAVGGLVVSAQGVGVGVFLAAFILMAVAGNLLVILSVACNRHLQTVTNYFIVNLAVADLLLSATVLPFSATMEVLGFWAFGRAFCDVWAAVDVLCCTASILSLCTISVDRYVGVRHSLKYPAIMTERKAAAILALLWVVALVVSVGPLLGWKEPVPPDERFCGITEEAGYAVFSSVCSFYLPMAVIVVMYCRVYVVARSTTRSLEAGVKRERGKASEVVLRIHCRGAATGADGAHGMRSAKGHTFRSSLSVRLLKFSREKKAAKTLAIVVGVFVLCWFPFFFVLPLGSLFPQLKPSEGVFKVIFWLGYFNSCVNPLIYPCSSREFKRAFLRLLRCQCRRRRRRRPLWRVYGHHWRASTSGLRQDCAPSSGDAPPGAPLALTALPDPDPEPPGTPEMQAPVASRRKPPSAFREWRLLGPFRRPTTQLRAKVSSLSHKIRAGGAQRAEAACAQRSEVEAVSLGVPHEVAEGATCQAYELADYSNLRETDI
UniProt Q16566, whole entry: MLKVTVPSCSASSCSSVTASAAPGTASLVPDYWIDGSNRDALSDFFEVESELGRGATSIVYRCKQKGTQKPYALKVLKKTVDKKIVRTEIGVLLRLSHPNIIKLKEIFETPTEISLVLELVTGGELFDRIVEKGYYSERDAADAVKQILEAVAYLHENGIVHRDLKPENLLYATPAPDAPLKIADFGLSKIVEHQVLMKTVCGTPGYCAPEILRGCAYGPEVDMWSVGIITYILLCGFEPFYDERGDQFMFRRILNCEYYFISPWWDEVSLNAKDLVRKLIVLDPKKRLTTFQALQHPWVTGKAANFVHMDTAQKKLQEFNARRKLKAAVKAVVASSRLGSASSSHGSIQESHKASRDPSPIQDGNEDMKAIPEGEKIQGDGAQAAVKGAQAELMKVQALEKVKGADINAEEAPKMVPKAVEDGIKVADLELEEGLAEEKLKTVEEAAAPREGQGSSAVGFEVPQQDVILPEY

Structure (SMILES)	target or system	assay	test system	conditions	how to read	endpoint	value
CCCN1CCN(c2ccc3c(c2)C2CC3CCN2C(=O)OCc2ccccc2)CC1 (stereo not drawn)	ADRA1D (Homo sapiens, UniProt P25100)	binding, radioligand binding	–	–	–	Ki	1900 nM
CCc1nc(N)nc(N)c1C#CCc1cc(OC)c(OC)c(-c2ccncc2)c1	Staphylococcus aureus	–	MRSA isolate UCH 127	–	–	MIC	0.312 µg/mL (≈ 0.802 µM)
Cn1c([N+](=O)[O-])cnc1COc1ccc2nc3ccc(=O)cc-3oc2c1	Mycobacterium tuberculosis	–	mc2 6206 clofazimine-resistant fbiC mutant	7 days	–	MIC90	> 256 µM
CC#C/C(=N\OC[C@H]1COCCN1)c1ccc2ncnc(Nc3ccc(OCc4cccc(F)c4)c(Cl)c3)c2c1	CAMK4 (Homo sapiens, UniProt Q16566)	kinase activity	–	10 µM	–	inhibition	1.8%
COC(=O)c1ccc(Cl)cc1NC(=O)CSc1ncc(S(=O)(=O)c2ccc(Br)cc2)c(=O)[nH]1	dengue virus 2	viral replication, single-cycle viral yield	New Guinea C	5 µM	–	inhibition	> 90%
CCN1CCN(Cc2ccc(NC(=O)c3ccc(C)c(/C=C/c4cnc5[nH]ccc5c4OC)c3)cc2C(F)(F)F)CC1	human PRKY	kinase-CDC37 interaction, inhibitor	human cells	5 µM	relative to: vehicle	log2 fold change	0.599
Cc1ccc(CCNC(=O)c2cnn3c(O)c(Cc4cc(C)ccc4C)c(C)nc23)cc1	dengue virus 2	viral replication, single-cycle viral yield	New Guinea C	10 µM	–	inhibition	> 90%
CCc1nc(N)nc(N)c1C#CCc1cc(OC)cc(-c2ccc(C(=O)O)cc2)c1	Staphylococcus aureus	–	MRSA clinical isolate dfrA	–	–	MIC	> 20 µg/mL
CSc1nc(Cl)cc(Sc2nnc(-c3cc(C(F)(F)F)cc(C(F)(F)F)c3)[nH]2)n1	Shigella flexneri	–	ATCC 12022	together with: NAB7061 4 µg/mL	–	MIC	0.3 µg/mL (≈ 0.636 µM)
Oc1ccc(C2NCCc3c2[nH]c2ccc(Cl)cc32)cc1O (stereo not drawn)	dengue virus 4	viral replication, plaque reduction	TVP360	bound stated in text	–	IC50	≤ 1000 nM
O=c1ccc2[n+]([O-])c3ccc(O)cc3oc-2c1	Mycobacterium tuberculosis	–	mc2 6206 bedaquiline-resistant MmpL5 regulator mutant	7 days	–	MIC90	118 µM (≈ 27 µg/mL)
Nc1c(C(=O)Nc2cc(Cl)ccc2Cl)sc2nc(-c3cccs3)ccc12	Escherichia coli	–	–	–	–	MIC50	80 µM (≈ 33.6 µg/mL)
CCc1nc(N)nc(N)c1C#C[C@H](C)c1cc(OC)cc(-c2ccc(C(=O)O)cc2)c1	Staphylococcus aureus	–	MRSA isolate UCH 121	–	–	MIC	5 µg/mL (≈ 12 µM)
CCCc1nn2c(=O)cc(CSc3nc(-c4ccc(C)cc4)nc4cc(=O)[nH]n34)nc2s1	dengue virus 4	viral replication, plaque reduction	BHK-21, TVP360	–	–	IC50	1000 to 10000 nM
CCN(CC)C(=O)Oc1ccc(C(=O)Nc2cccc3cc[nH]c23)cc1	–	NMDA receptor EPSC, inhibitor, whole-cell patch clamp	subthalamic nucleus neurons, rat, subthalamic nucleus slices	10 µM	relative to: vehicle	weighted decay time constant	decreased
CCCCCCC1c2ccc(O)cc2Oc2cc(O)ccc21	Escherichia coli	–	MC4100	no additive	–	MIC	> 373 µg/mL
CC(C)Cc1nnc2c(C(=O)NC3c4ccccc4-c4ccccc43)cccn12	Escherichia coli	broth microdilution	MB5746 rpoZ Δ23-91 frameshift	–	relative to: mutant over wild type	MIC ratio	> 32
CCNC(=O)C(CCCCNC(=O)CCOCCOCCOCCOCCNC(=O)CCNc1ccc(-c2nc3ccc(C)cc3s2)cc1)NC(=O)C(CCCCNC(=O)CCOCCOCCOCCOCCNC(=O)CCNc1ccc(-c2nc3ccc(C)cc3s2)cc1)NC(=O)C(CCCCNC(=O)CCOCCOCCOCCOCCNC(=O)CCNc1ccc(-c2nc3ccc(C)cc3s2)cc1)NC(=O)C(CCCCNC(=O)CCOCCOCCOCCOCCNC(=O)CCNc1ccc(-c2nc3ccc(C)cc3s2)cc1)NC(=O)CCOCCOCCOCCOCCNC(=O)CCNc1ccc(-c2nc3ccc(C)cc3s2)cc1 (stereo not drawn)	HIV-1	SEVI-enhanced infection	TZM-bl, IIIB	200 nM	–	infectivity reduction	~50%

Repeated from above:
Structure (SMILES)	target or system	assay	test system	conditions	how to read	endpoint	value
Nc1c(C(=O)Nc2cc(Cl)ccc2Cl)sc2nc(-c3cccs3)ccc12	Escherichia coli	–	–	–	–	MIC50	80 µM (≈ 33.6 µg/mL)
CCc1nc(N)nc(N)c1C#C[C@H](C)c1cc(OC)cc(-c2ccc(C(=O)O)cc2)c1	Staphylococcus aureus	–	MRSA isolate UCH 121	–	–	MIC	5 µg/mL (≈ 12 µM)
CCCc1nn2c(=O)cc(CSc3nc(-c4ccc(C)cc4)nc4cc(=O)[nH]n34)nc2s1	dengue virus 4	viral replication, plaque reduction	BHK-21, TVP360	–	–	IC50	1000 to 10000 nM
